Measurements of several laboratories.
Lines come from different studies, so protocols differ. ± gives the spread as reported.
CYP1A2: Cytochrome P450 1A2 (CYP1A2, Homo sapiens, UniProt P05177)
Chain of UniProt P05177 (whole entry, looked up): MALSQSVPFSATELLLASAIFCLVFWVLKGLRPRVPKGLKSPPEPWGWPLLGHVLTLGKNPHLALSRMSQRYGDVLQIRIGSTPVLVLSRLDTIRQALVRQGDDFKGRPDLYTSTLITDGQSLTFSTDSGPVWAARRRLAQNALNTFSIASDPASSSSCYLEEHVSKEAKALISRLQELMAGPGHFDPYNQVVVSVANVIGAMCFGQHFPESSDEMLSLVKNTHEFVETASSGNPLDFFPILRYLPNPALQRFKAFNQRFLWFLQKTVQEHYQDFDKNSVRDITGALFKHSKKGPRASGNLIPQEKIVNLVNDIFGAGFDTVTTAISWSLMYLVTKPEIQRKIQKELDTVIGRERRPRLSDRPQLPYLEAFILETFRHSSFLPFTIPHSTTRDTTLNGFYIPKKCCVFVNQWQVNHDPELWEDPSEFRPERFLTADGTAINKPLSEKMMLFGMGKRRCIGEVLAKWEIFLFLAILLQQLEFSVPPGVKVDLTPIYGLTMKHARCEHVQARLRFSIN
PROK: Proteinase K (PROK, Engyodontium album, UniProt P06873)
Chain of UniProt P06873 (whole entry, looked up): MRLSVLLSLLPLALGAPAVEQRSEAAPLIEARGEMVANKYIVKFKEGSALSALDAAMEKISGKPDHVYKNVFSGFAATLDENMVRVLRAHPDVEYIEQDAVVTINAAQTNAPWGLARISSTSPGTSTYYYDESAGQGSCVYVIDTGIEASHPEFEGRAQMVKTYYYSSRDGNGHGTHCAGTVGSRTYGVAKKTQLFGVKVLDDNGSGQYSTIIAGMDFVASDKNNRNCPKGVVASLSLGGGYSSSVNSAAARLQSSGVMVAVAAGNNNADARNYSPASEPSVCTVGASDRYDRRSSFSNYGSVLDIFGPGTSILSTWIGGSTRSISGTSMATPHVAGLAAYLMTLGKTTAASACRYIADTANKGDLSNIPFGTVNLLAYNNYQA
Chain of UniProt P61073 (whole entry, looked up): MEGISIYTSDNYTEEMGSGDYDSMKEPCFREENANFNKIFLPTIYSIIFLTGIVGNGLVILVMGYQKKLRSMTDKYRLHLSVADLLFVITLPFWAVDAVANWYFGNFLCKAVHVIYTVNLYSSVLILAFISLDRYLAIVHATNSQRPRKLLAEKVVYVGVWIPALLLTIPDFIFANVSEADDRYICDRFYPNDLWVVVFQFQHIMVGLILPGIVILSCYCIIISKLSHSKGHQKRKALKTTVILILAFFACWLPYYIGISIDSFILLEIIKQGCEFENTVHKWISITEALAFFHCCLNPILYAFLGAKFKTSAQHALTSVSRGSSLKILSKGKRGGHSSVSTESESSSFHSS
Chain of UniProt P00761 (whole entry, looked up): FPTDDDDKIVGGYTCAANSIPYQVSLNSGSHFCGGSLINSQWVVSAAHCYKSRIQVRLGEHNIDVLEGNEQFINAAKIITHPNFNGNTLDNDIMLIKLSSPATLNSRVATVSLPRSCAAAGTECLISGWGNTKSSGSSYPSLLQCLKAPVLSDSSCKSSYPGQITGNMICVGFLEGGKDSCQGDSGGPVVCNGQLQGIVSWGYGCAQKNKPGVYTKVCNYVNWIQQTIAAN
Chain of UniProt P08684 (whole entry, looked up): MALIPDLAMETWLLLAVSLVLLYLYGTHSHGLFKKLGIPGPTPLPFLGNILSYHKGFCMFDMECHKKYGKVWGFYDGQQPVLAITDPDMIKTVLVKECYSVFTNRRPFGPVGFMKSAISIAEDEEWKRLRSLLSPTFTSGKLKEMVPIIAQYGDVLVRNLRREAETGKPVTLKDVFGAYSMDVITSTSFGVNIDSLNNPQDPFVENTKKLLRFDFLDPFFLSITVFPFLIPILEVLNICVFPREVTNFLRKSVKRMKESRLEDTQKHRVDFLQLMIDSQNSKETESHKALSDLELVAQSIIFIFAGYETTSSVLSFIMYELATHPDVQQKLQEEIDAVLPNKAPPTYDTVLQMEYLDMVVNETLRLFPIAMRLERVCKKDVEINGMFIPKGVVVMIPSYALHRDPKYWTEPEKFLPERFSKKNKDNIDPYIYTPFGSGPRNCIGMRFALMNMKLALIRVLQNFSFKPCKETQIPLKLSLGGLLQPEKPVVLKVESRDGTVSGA
Chain of UniProt P05181 (whole entry, looked up): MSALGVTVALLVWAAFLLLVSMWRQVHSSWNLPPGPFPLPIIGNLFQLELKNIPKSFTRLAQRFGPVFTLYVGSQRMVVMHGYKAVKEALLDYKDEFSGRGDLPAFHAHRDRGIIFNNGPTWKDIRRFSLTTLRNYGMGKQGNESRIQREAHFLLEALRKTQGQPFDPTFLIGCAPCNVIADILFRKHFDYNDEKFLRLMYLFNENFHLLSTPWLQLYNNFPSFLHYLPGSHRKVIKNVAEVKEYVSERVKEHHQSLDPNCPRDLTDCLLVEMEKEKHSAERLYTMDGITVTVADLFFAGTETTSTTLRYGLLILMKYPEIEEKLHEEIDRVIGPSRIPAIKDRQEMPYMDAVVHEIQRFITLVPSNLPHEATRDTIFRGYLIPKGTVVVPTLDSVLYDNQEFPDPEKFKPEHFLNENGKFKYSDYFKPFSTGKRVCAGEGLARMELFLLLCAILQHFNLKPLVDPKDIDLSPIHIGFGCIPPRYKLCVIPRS

Under “complex molecular mass”, `CC[C@H](C)[C@H](NC(=O)[C@H](C)NC(=O)[C@H](CCCNC(=N)N)NC(=O)[C@@H](NC(=O)[C@H](CCCCN)NC(=O)[C@H](CC(N)=O)NC(=O)[C@H](CCCNC(=N)N)NC(=O)[C@@H](NC(=O)[C@@H](NC(=O)[C@H](CCC(=O)O)NC(=O)[C@H](CCCCN)NC(=O)[C@H](CCCNC(=N)N)NC(=O)[C@H](C)NC(=S)Nc1ccc2c(c1)C(=O)OC21c2ccc(O)cc2Oc2cc(O)ccc21)[C@@H](C)CC)[C@@H](C)CC)[C@@H](C)CC)C(=O)NCC(=O)N[C@@H](CCCCN)C(=O)N[C@@H](CCSC)C(=O)N[C@@H](C)C(=O)N[C@@H](CCCNC(=N)N)C(=O)N[C@H](C(=O)N[C@@H](Cc1ccccc1)C(=O)N[C@@H](CO)C(=O)N[C@H](C(=O)N[C@@H](CC(C)C)C(=O)N[C@@H](CCCNC(=N)N)C(=O)O)C(C)C)C(C)C` is recorded as 19.4 kDa (Calmodulin, Ca2+-bound (CAM, Paramecium tetraurelia, UniProt P07463); analytical ultracentrifugation; Paramecium).
`CN1C(=O)[C@@H](Cc2ccc(O)cc2)NC(=O)CNC(=O)[C@H](Cc2ccc3ccccc3c2)NC(=O)[C@H](CCCNC(=N)N)NC(=O)[C@H]1CCCNC(=O)c1ccc(CNC(=O)CN2CCN(CC(=O)O)CCN(CC(=O)O)CCN(CC(=O)O)CC2)cc1` [gallium-68 labelled] has an SUVmean of 5.69 (CXCR4 (Homo sapiens, UniProt P61073); PET imaging; human, spleen).
`CC(C)(O)c1ccccc1CC[C@H](c1cccc(/C=C/c2ccc3ccc(Cl)cc3n2)c1)S(=O)(=O)CC1(CC(=O)O)CC1` gave an inhibition of less than 0% (CYP1A2; inhibitor; human liver microsomes; 2 µM, pH 7.4, together with: phenacetin).
`CC[C@H](C)[C@H](NC(=O)[C@H](Cc1c[nH]cn1)NC(=O)[C@H](CC(N)=O)NC(=O)[C@H](Cc1ccccc1)NC(=O)[C@H](Cc1ccc(O)cc1)NC(=O)[C@H](CC(=O)N(CCOCCOCCOCCOC)CCOCCOCCOCCOC)NC(=O)[C@@H](NC(=O)[C@H](CCCNC(=N)N)NC(=O)CNC(=O)[C@H](CO)NC(=O)[C@H](CO)NC(=O)[C@H](CCCNC(=N)N)NC(=O)[C@H](CO)NC(=O)[C@H](CCSC)NC(=O)[C@H](CCCNC(=N)N)NC(=O)[C@H](CCCCN)NC(=O)[C@H](CCC(=O)O)NC(=O)[C@H](Cc1c[nH]c2ccccc12)NC(=O)CNC(=O)[C@@H]1CCCN1C(=O)[C@@H]1CCCN1C(=O)[C@H](CC(C)C)NC(=O)[C@@H](N)CCCCN)C(C)C)C(=O)N[C@H](C(=O)N[C@@H](CC(N)=O)C(=O)N[C@@H](C)C(=O)N[C@@H](CO)C(=O)N[C@@H](CCC(N)=O)C(=O)N[C@@H](Cc1ccccc1)C(=O)N[C@@H](CCC(=O)O)C(=O)N[C@@H](CCCNC(=N)N)C(=O)N1CCC[C@H]1C(=O)N[C@@H](CO)C(=O)NCC(=O)O)[C@@H](C)O`: “ln rate constant ratio” -2.2 ± 0.3 (PROK; proteolysis, substrate, HPLC; room temperature; reference: PEGylated over non-PEGylated variant, negative = more stable).
`C=CC(=O)Nc1cc(Nc2nccc(-c3cn(C)c4ccccc34)n2)c(OCC(F)(F)F)nc1N(C)CCN(C)C` — result for “activity vs control”: 77.7% (Cytochrome P450 3A4 (CYP3A4, Homo sapiens, UniProt P08684); enzyme activity, inhibitor; human, liver microsomes; 1 µM, midazolam probe).
For `CC[C@H](C)[C@H](NC(=O)[C@H](Cc1c[nH]cn1)NC(=O)[C@H](CC(N)=O)NC(=O)[C@H](Cc1ccccc1)NC(=O)[C@H](Cc1ccc(O)cc1)NC(=O)[C@H](Cc1ccc(O)cc1)NC(=O)[C@@H](NC(=O)[C@H](CCCNC(=N)N)NC(=O)CNC(=O)[C@H](CO)NC(=O)[C@H](CC(=O)N(CCOCCOCCOCCOC)CCOCCOCCOCCOC)NC(=O)[C@H](CCCNC(=N)N)NC(=O)[C@H](CO)NC(=O)[C@H](CCSC)NC(=O)[C@H](CCCNC(=N)N)NC(=O)[C@H](CCCCN)NC(=O)[C@H](CCC(=O)O)NC(=O)[C@H](Cc1c[nH]c2ccccc12)NC(=O)CNC(=O)[C@@H]1CCCN1C(=O)[C@@H]1CCCN1C(=O)[C@H](CC(C)C)NC(=O)[C@@H](N)CCCCN)C(C)C)C(=O)N[C@H](C(=O)N[C@@H](CC(N)=O)C(=O)N[C@@H](C)C(=O)N[C@@H](CO)C(=O)N[C@@H](CCC(N)=O)C(=O)N[C@@H](Cc1ccccc1)C(=O)N[C@@H](CCC(=O)O)C(=O)N[C@@H](CCCNC(=N)N)C(=O)N1CCC[C@H]1C(=O)N[C@@H](CO)C(=O)NCC(=O)O)[C@@H](C)O`, “ln rate constant ratio” read 0.4 ± 0.5 (PROK; proteolysis, substrate, HPLC; room temperature; reference: PEGylated over non-PEGylated variant, negative = more stable).
With `CC[C@@H]1CN2CCc3c([nH]c4cccc(OC)c34)[C@@H]2C[C@@H]1/C(=C\OC)C(=O)OC` the IC50 was greater than 100 µM (UDP-glucuronosyltransferase, human; 4-MU glucuronidation, inhibitor; human liver microsomes; 30 min, pH 7.4, together with: 4-methylumbelliferone 100 µM).
`CNC(=O)Oc1cc(C)c(S(C)(=O)=O)c(C)c1` gave an inhibition of 15.3% (CYP1A2; inhibitor; human liver microsomes; 10 µM, pH 7.4, together with: phenacetin).
`Cc1cc(Br)c(O)c(Br)c1` gave an IC50 of 14 µM (Cytochrome P450 2E1 (CYP2E1, Homo sapiens, UniProt P05181); p-nitrophenol hydroxylation, inhibitor; 10 min, together with: p-nitrophenol 100 µM).
`[64Cu+2].c1ccc(CNCc2ccc(CN3CCCNCCNCCCNCC3)cc2)nc1` has a tissue uptake of 3.65 ± 0.07 %ID/g (CXCR4; NOD/SCID mouse, U87 and U87-stb-CXCR4 xenografts, spleen; iv, 90 min, no blocking dose, ex vivo).
Under proteolytic stability, `CC[C@H](C)[C@@H]1NC(=O)[C@H](C(C)C)NC(=O)[C@H](C(C)C)NC(=O)[C@H](CC(C)C)NC(=O)C[C@@H](C(=O)N[C@@H](Cc2c[nH]c3ccccc23)C(=O)N[C@@H](CC(N)=O)C(=O)N[C@@H](C)C(=O)N2CCC[C@H]2C(=O)NCC(=O)N[C@@H](Cc2c[nH]c3ccccc23)C(=O)N[C@@H](Cc2ccc(O)cc2)C(=O)O)NC(=O)[C@H](C)NC(=O)[C@H](CCC(N)=O)NC(=O)[C@H](C(C)C)NC1=O` is recorded as “stable” (carboxypeptidase Y; 12 h, pH 6.0, 28 °C).
`CC[C@H](C)[C@H](NC(=O)[C@H](CCn1cc(COCCOCCOCCOC)nn1)NC(=O)[C@H](CC(N)=O)NC(=O)[C@H](Cc1ccccc1)NC(=O)[C@H](Cc1ccc(O)cc1)NC(=O)[C@H](Cc1ccc(O)cc1)NC(=O)[C@@H](NC(=O)[C@H](CCCNC(=N)N)NC(=O)CNC(=O)[C@H](CO)NC(=O)[C@H](CO)NC(=O)[C@H](CCCNC(=N)N)NC(=O)[C@H](CO)NC(=O)[C@H](CCSC)NC(=O)[C@H](CCCNC(=N)N)NC(=O)[C@H](CCCCN)NC(=O)[C@H](CCC(=O)O)NC(=O)[C@H](Cc1c[nH]c2ccccc12)NC(=O)CNC(=O)[C@@H]1CCCN1C(=O)[C@@H]1CCCN1C(=O)[C@H](CC(C)C)NC(=O)[C@@H](N)CCCCN)C(C)C)C(=O)N[C@H](C(=O)N[C@@H](CC(N)=O)C(=O)N[C@@H](C)C(=O)N[C@@H](CO)C(=O)N[C@@H](CCC(N)=O)C(=O)N[C@@H](Cc1ccccc1)C(=O)N[C@@H](CCC(=O)O)C(=O)N[C@@H](CCCNC(=N)N)C(=O)N1CCC[C@H]1C(=O)N[C@@H](CO)C(=O)NCC(=O)O)[C@@H](C)O` — result for “ln rate constant ratio”: 0.6 ± 0.4 (PROK; proteolysis, substrate, HPLC; room temperature; reference: PEGylated over non-PEGylated variant, negative = more stable).
`CCCS(=O)(=O)c1ccc2[nH]c(NC(=O)OC)nc2c1` has an inhibition of 7.84% (CYP1A2; inhibitor; human liver microsomes; 10 µM, pH 7.4, together with: phenacetin).
For `CC[C@H](C)[C@H](NC(=O)[C@H](Cc1c[nH]cn1)NC(=O)[C@H](CC(N)=O)NC(=O)[C@H](Cc1ccccc1)NC(=O)[C@H](Cc1ccc(O)cc1)NC(=O)[C@H](Cc1ccc(O)cc1)NC(=O)[C@@H](NC(=O)[C@H](CCCNC(=N)N)NC(=O)CNC(=O)[C@H](CO)NC(=O)[C@H](CO)NC(=O)[C@H](CCCNC(=N)N)NC(=O)[C@H](CCC(=O)NCCOCCOCCOCCOC)NC(=O)[C@H](CCSC)NC(=O)[C@H](CCCNC(=N)N)NC(=O)[C@H](CCCCN)NC(=O)[C@H](CCC(=O)O)NC(=O)[C@H](Cc1c[nH]c2ccccc12)NC(=O)CNC(=O)[C@@H]1CCCN1C(=O)[C@@H]1CCCN1C(=O)[C@H](CC(C)C)NC(=O)[C@@H](N)CCCCN)C(C)C)C(=O)N[C@H](C(=O)N[C@@H](CC(N)=O)C(=O)N[C@@H](C)C(=O)N[C@@H](CO)C(=O)N[C@@H](CCC(N)=O)C(=O)N[C@@H](Cc1ccccc1)C(=O)N[C@@H](CCC(=O)O)C(=O)N[C@@H](CCCNC(=N)N)C(=O)N1CCC[C@H]1C(=O)N[C@@H](CO)C(=O)NCC(=O)O)[C@@H](C)O`, “ln rate constant ratio” read -1 ± 0.3 (PROK; proteolysis, substrate, HPLC; room temperature; reference: PEGylated over non-PEGylated variant, negative = more stable).
`CC[C@H](C)[C@H](NC(=O)[C@H](C)NC(=O)[C@H](CCCNC(=N)N)NC(=O)CNC(=O)CNC(=O)[C@H](CCCNC(=N)N)NC(=O)[C@H](CCCNC(=N)N)NC(=O)[C@H](CCCNC(=N)N)NC(=O)[C@H](CCC(N)=O)NC(=O)[C@H](CCCNC(=N)N)NC(=O)[C@H](CCCNC(=N)N)NC(=O)[C@H](CCCCN)NC(=O)[C@H](CCCCN)NC(=O)[C@H](CCCNC(=N)N)NC(=O)CNC(=O)[C@@H](N)Cc1ccc(O)cc1)C(=O)N[C@H](C(=O)N[C@H](C(=O)N[C@@H](CC(C)C)C(=O)N[C@@H](CC(=O)O)C(=O)N[C@H](C(=O)N[C@@H](CCC(=O)O)C(=O)N[C@@H](CCCCN)C(=O)N[C@@H](CO)C(=O)O)[C@@H](C)O)[C@@H](C)CC)[C@@H](C)O`: “time to degradation” no more than 20 min (Trypsin (Sus scrofa, UniProt P00761); 1 mg/mL, pH 8.0, 37 °C, together with: trypsin).

Some of these lines once more:
`CC(C)(O)c1ccccc1CC[C@H](c1cccc(/C=C/c2ccc3ccc(Cl)cc3n2)c1)S(=O)(=O)CC1(CC(=O)O)CC1` gave an inhibition of less than 0% (CYP1A2; inhibitor; human liver microsomes; 2 µM, pH 7.4, together with: phenacetin).
